Assay results collected from several papers.
Every numbered part comes from another study and shows a few of its results, in no order.

Sample 1
Cell line: mouse MPNST tumor cells
Method: high-content nuclear imaging
Item: cell number
Tested at: 10 µM
Time: 12 h
Setting: mean of 2 replicates
Reference: plate mean
Reading: higher = more cells
Endpoint: nuclei count
SMILES = O=C(O)Cn1c(C(=O)Nc2nc(-c3ccccc3Cl)cs2)cc2ccccc21; result = 1.24 z-score
SMILES = CC1(C)S[C@@H]2[C@H](NC(=O)[C@H](N)c3ccccc3)C(=O)N2[C@H]1C(=O)O; result = 4.26 z-score
SMILES = COc1cc(O)c(CC=C(C)C)c(O)c1C(=O)/C=C/c1ccc(O)cc1; result = -3.99 z-score
SMILES = O=C(Nc1cccc(Cl)c1)Nc1ncc(CCNc2ncnc3ccsc23)s1; result = -1.69 z-score
SMILES = CC(=O)c1cc(-c2ccccc2OCC2CC2)c2ncccn12; result = 0.191 z-score

Sample 2
Target: His6 tag
Method: AlphaScreen counter screen
Tested at: concentration not given
Endpoint: inhibition
Compound = NC(=O)c1ccc2ccccc2c1; result = -5.35%
Compound = O=C(NCc1ccc(NC(=O)C2CC2)cc1)c1n[nH]c2ccccc12; result = 3.4%
Compound = CC(C)c1nn(-c2c(Cl)cccc2Cl)c2nc(Cc3ccc(OCCO)cc3)[nH]c(=O)c12; result = 22%
Compound = COc1ccc(-c2nnc(SCC(=O)Nc3ccc(F)cc3F)n2-n2cccc2)cc1; result = 12.7%

Sample 3
Host: mouse
Sample: microsomes or S9
Tested at: 2 µM
Time: 0.5 h
Endpoint: remaining compound
SMILES = O=C(NCc1cccnc1)c1c(OCC2CC2)cc(=O)n2c1CCOCC2; result = 74%
SMILES = Cn1cnc2cc(N3CC(=O)C(c4nc(-c5ccccc5)cs4)=C3N)ccc21; result = 70.5%
SMILES = COc1cc(=O)n2c(c1C(=O)NCc1ccccc1C(F)(F)F)CCCC2; result = 10.5%

Sample 4
Target: Histamine H4 receptor (HRH4, Homo sapiens, UniProt Q9H3N8)
UniProt Q9H3N8, sequence (whole entry, looked up): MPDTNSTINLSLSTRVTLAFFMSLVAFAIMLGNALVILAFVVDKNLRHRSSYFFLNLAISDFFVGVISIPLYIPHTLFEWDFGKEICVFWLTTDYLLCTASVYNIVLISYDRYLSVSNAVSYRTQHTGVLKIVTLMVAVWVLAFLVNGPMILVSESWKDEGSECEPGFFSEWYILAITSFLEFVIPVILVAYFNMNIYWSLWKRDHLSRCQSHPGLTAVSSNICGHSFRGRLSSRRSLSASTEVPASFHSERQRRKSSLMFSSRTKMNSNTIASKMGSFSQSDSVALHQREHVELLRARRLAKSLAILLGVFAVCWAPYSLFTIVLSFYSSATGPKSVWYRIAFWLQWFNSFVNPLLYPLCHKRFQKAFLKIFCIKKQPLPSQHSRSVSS
Observed: binding
Method: radioligand binding
Tested at: 10 µM
Endpoint: inhibition
SMILES = COCCc1ccc(-c2c(C)nc3c(N4CCOCC4)ccnn23)cn1; result = -1.08%
SMILES = Cc1nc(C2CCN(C(=O)c3ccc(OC(F)(F)F)cc3N)CC2)c2ncc(N3CCN(C)CC3)cc2n1; result = -5.28%
SMILES = O=C(Nc1ccc(-n2nc(-c3cccnc3)cc2C(F)(F)F)cn1)c1ccc(-c2ccccc2)c(F)c1; result = -9.32%
SMILES = CNC(=O)Nc1ccc2c(c1)[C@]1(CC2)OC(=O)N(CC(=O)N(Cc2ccc(F)cc2)[C@@H](C)C(F)(F)F)C1=O; result = 5.16%
SMILES = O=C1c2ccc(Nc3ccc(F)cc3F)cc2CCc2ccc(OC[C@H](O)CO)cc21; result = -15.3%
SMILES = CN1CCN(C(=O)C(C)(C)c2ccc(C(=O)Nc3cn4cc(-c5ccncc5)ccc4n3)cc2)CC1; result = 0.74%
SMILES = C[C@@H]1CN(c2cc(-c3nn(C)c4ccc(OC5(C)CC5)cc34)ncn2)C[C@H](C)O1; result = -16.2%
SMILES = Cc1nc(Cc2cccc(C(F)(F)F)c2)sc1-c1ccc(C(N)=O)nc1; result = 7.74%
SMILES = Cc1cc(-n2nc(Cc3cc(F)cc(C(F)(F)F)c3)nc2C)ccc1C(N)=O; result = 1.73%
SMILES = Cc1nc(N2CC[C@@H](O)C2)ncc1-c1cc(C(F)(F)F)cc2[nH]ncc12; result = 12%
SMILES = Cc1cc(C)c(-n2ccn3nc(-c4cccnc4)cc23)cc1NC(=O)c1cc(C#N)cc(S(F)(F)(F)(F)F)c1; result = 11.9%
SMILES = Cc1c(NC(=O)c2cc(C(N)=O)nc3cc(F)ccc23)c(C(F)(F)F)nn1Cc1ccc(C(C)(C)C)cc1; result = 13%
SMILES = O=C(Nc1cccnn1)N1CCC(=Cc2cccc(Oc3ccc(C(F)(F)F)cn3)c2)CC1; result = 17.3%
SMILES = COc1cc(-c2cn(C3CCc4ccccc4N(CC(F)(F)F)C3=O)nn2)ccc1-n1ccc(C)n1 (stereo not drawn); result = 9.63%
SMILES = C[C@H](NC(=O)c1cnc2n1[C@](C)(Cc1ccc(C#N)cc1)C(=O)N2c1cc(Cl)c(F)c(Cl)c1)C(=O)NC1(c2ccccn2)CC1; result = 9.55%
SMILES = O=C(NC[C@@H]1[C@H]2CN(C(=O)OCc3cc(C(F)(F)F)cc(C(F)(F)F)c3)C[C@@H]12)c1ccc2[nH]nnc2c1; result = 39.5%
SMILES = CN([C@@H]1CCc2c(CC(=O)O)c3cc(S(C)(=O)=O)ccc3n2C1)S(=O)(=O)c1ccc(F)cc1; result = 16%
SMILES = CC(=O)N1CCC(c2ccc(C(=O)NC(=N)N)cc2C(F)(F)F)CC1; result = 7.11%
SMILES = C[C@@]1(Cc2ccc(C#N)cc2)C(=O)N(c2cc(Cl)cc(Cl)c2)c2ncc(C(=O)NC3(c4nc(C5CCC5)no4)CC3)n21; result = 27.6%

Sample 5
Cell line: HaCaT
Tested at: 100 µM
Time: 36 h
Endpoint: viability
SMILES = CC1=C(C)C(=O)C(C(CCCCCC(=O)O)c2ccccc2)=C(C)C1=O (stereo not drawn); result = 115%
SMILES = O=c1c(-c2ccc(O)cc2)coc2cc(O[C@@H]3O[C@H](CO)[C@@H](O)[C@H](O)[C@H]3O)ccc12; result = 92.7%
SMILES = Cc1ccccc1C(=O)Nc1ccc(C(=O)N2CCCC(O)c3cc(Cl)ccc32)c(C)c1 (stereo not drawn); result = 63.8%
SMILES = COc1cc(C[C@H]2C(=O)OC[C@@H]2Cc2ccc(OC)c(OC)c2)ccc1O; result = 75.7%

Sample 6
Cell line: Huh-7
Tested at: 10 µM
Time: 24 h
Endpoint: viability
Compound = CCN1CCN(c2cc3c(cc2F)c(=O)c(C(=O)O)cn3C2CC2)CC1; result = 96.4%
Compound = CC(CCc1ccc(O)cc1)NCCc1ccc(O)c(O)c1 (stereo not drawn); result = 103%
Compound = NC(=O)N/N=C/c1ccc([N+](=O)[O-])o1; result = 95.6%

Mixed results
Structure (SMILES) = CC(C)n1cnc(-c2ccc(F)cc2)c1-c1ncc(C(=O)Nc2ccc(N3CCN(C)CC3)cc2)[nH]1; assay = item: grade ≥3 events; system = patients with idiopathic pulmonary fibrosis; conditions = 30 mg twice daily, trial, without standard of care; endpoint = patients with serious adverse event; result = 20%

Excerpt of the above (sample 2):
Compound = NC(=O)c1ccc2ccccc2c1; result = -5.35%
Compound = COc1ccc(-c2nnc(SCC(=O)Nc3ccc(F)cc3F)n2-n2cccc2)cc1; result = 12.7%
Compound = O=C(NCc1ccc(NC(=O)C2CC2)cc1)c1n[nH]c2ccccc12; result = 3.4%
Compound = CC(C)c1nn(-c2c(Cl)cccc2Cl)c2nc(Cc3ccc(OCCO)cc3)[nH]c(=O)c12; result = 22%
